Results of several laboratories.
Each line is one published result; not all experiments were run side by side. Values joined by “and” are separate records of one study, mostly repeats; a detail may differ. ± gives the spread as reported.

| Compound | cell line | assay | conditions | scale | quantity | value |
| --- | --- | --- | --- | --- | --- | --- |
| Cn1ncc2cc(-c3cncc(Cl)c3N3CCC4(CCNC4=O)CC3)ccc21 | LS174T | gene expression, microarray, refers to: GDF15 (PDF) mRNA | concentration not given, 24 h | reference: untreated cells | log2 fold change | -4.21 |
| c1ccc2c(Cc3c(-c4c[nH]c5ccccc45)[nH]c4ccccc34)c[nH]c2c1 | human monocytes |  | 5 µM | reference: DMSO | IL-1β induction | increased |
| CCN(C(=O)c1cc(F)ccc1Oc1nncnc1N1CCC2(C1)CN([C@H](CCCN(C)CCOC)C(C)C)C2)C(C)C | UMUC3 | cell growth or viability | 72 h |  | GI50 | > 10 µM |
| CC(C)(C)c1cc(-c2ccc3cccnc3n2)nc(-c2ccc3cccnc3n2)c1.COc1ccncc1.[Cl-].[Cl-].[Ru+2].c1ccc2cc3nc4c5cccnc5c5ncccc5c4nc3cc2c1 | SK-MEL-28 |  | light 633 nm, oxygen 18.5% | reference: dark EC50 over light EC50 | phototherapeutic index | 157 |
| COc1cc(/C=C/C(=O)/C=C(O)/C=C/c2ccc(OCC(=O)N3CCOCCOCCOCCOCCOCC3)c(OC)c2)ccc1OCC(=O)N1CCOCCOCCOCCOCCOCC1 | SK-LU-1 | cell growth or viability, SRB | 25 µM |  | inhibition | 100% |
| Cc1cc(Cl)cc(-c2ccnc3cc(CN4C(=O)C5C(C4=O)C5(C)C)sc23)c1C[C@@H]1CNCCO1 (stereo partly shown) | CHP-212 parental (wild-type USP7) | annexin V-PI flow cytometry | 1 µM, 48 h |  | early apoptotic cells (annexin V+/PI-) | 32.2% and 23.7% and 26.6% |
| CCN(CC)CCNC(=S)Nc1ccc2nc(N3CCN(CC)CC3)cc(C)c2c1 | U2OS HDR-GFP reporter | homology-directed repair, flow cytometry | 30 µM |  | GFP-positive cells | 5.18% |
| CCN(CC)CC(=O)Nc1cccc(-n2cc(-c3ccc4ccc(-c5cn(-c6cccc(NC(=O)CN(CC)CC)c6)nn5)cc4c3)nn2)c1 | RCC4 | PCR angiogenesis array, refers to: PROK2 | 5 x IC50, 4 h, normoxia | reference: untreated | fold regulation | 1.06 |
| COC1=C2CC(C)CC(OC)C(O)C(C)C=C(C)C(OC(N)=O)C(OC)C=CC=C(C)C(=O)NC(=CC1=O)C2=O (stereo not shown) | Rh30 | ChIP-seq, refers to: H3K36me3 peak | concentration not given, PGAM5 intron chr12:133271200-133281799 | reference: untreated control | log fold change | -0.505 |
| CCOc1cncc(-c2ccc(NC(=O)C3(c4ccnc(NS(=O)(=O)C5CC5)n4)CCOCC3)nc2)n1 | SN12C | cell proliferation, CellTiter-Glo | 72 h, renal cancer |  | IC50 | 104 nM |
| O=C(NCc1cc(F)cc(F)c1)[C@@]1(O)CCN(c2ccc3[nH]ccc3c2)C1=O | Ovarian PDX-derived tumour cells | colony formation, soft agar clonogenic | concentration not given, 8-10 days |  | maximal inhibition | 86% |
| Cc1c2ccnc(C(=O)N[C@H](C)CN(C)C)c2cc2c3cc(OCCCN4CCN(C)CC4)ccc3n(C)c12 | patient-derived LCL | electrochemiluminescent immunoassay | concentration not given, outcome decreased, dose-dependent |  | poly(GP) level | decreased |
| Fc1cncc(-c2ccc3[nH]c4ncnc(N[C@H]5CC[C@H](N6CCOCC6)CC5)c4c3c2)c1 | TMD8 | immunoblot | 10 µM, 24 h |  | IRAK4 phosphorylation | inhibited |
| CC(C)Cc1ccc(C(C)C(=O)[Se]CC(=O)Nc2cccc(C(F)(F)F)c2)cc1 (stereo not shown) | NCI60 colon subpanel | cell growth | 10 µM, 48 h, one-dose |  | mean growth percent | -46% |
| C=CC(=O)N1[C@@H](c2ccc3c(c2)OCO3)c2[nH]c3ccccc3c2C[C@H]1C(=O)NC1CC1 | rat DRG neurons |  | 3.333 µM, 48 h, added: vincristine 40 nM |  | mean neuron degeneration | 42.1% |
| Cc1ncsc1-c1ccc(C(C)NC(=O)C2CC(O)CN2C(=O)C(NC(=O)CCCCCCCCCCN2CCCC(Nc3ncc(Cl)c(Nc4ccccc4S(=O)(=O)C(C)C)n3)C2)C(C)(C)C)cc1 (stereo not shown) | 22Rv1 | RNA-seq, refers to: RFWD3 mRNA | concentration not given | reference: DMSO | log2 fold change | -1.97 |
| Cc1c(Cl)cccc1Nc1ccccc1C(=O)[Se]CC(=O)Nc1cccc(C(F)(F)F)c1 | NCI60 colon subpanel | NCI60 five-dose screen |  |  | mean TGI | 6.86 µM |
| COc1cccc(OC)c1-c1cc(C(=O)NC2(C(=O)O)C3CC4CC(C3)CC2C4)nn1-c1ccc(C(=O)NCCNC(=O)[C@H](CCCCNC(=O)[C@H](CC(C)C)NC(=O)C2OC2C(=O)O)NC(=O)CN2CCN(CC(=O)[O-])CCN(CC(=O)[O-])CCN(CC(=O)[O-])CC2)cc1C(C)C.[177Lu+3] (mixture of isomers) | HT-29 |  | concentration not given, 240 min | reference: added activity | surface-bound fraction | 1.55 ± 0.22% |
| CN1CCCNC(=O)c2cccc(c2)C(=O)NCCCN(C)CCCNc2cccc3c2C(=O)c2cccc(c2C3=O)NCCC1 | SAS | RNA-Seq, refers to: RBM12 mRNA | 1 µM, 6 h | reference: untreated cells | log2 fold change | -0.966 |

| Compound | cell line | assay | conditions | scale | quantity | value |
| --- | --- | --- | --- | --- | --- | --- |
| C=CC(=O)N1CCCC(n2c(=O)c3ncccc3n(Cc3ccc(Oc4ccccc4)cc3)c2=O)C1 (stereo not shown) | Rec1 | refers to: LBH | concentration not given | reference: untreated | log2 fold change | 0.345 |
| O=C(O)C1OC(Oc2ccc(-c3oc4ccc(O)cc4c(=O)c3O)cc2)C(O)C(O)C1O (stereo not shown) | MDCKII-UGT1A1/MRP2 cells | glucuronide efflux, substrate |  |  | Jmax | 8.47 ± 0.33 pmol/mg/min |
| Cn1c(=O)n(C2CCC(=O)NC2=O)c2ccc(C3CCN(CC(=O)Nc4cccc(CS(=O)(=O)N5CC[C@H](Nc6cccc(-c7sc(C(=O)O)c(OCC(=O)O)c7Cl)c6)CC5(C)C)c4)CC3)cc21 (stereo partly shown) | B16-F10 | HTRF, refers to: phospho-STAT1 Tyr701 | 0.005 µM, added: IFN-γ | reference: min-max normalised | pSTAT1 level | 3.28% and 4.36% and 4.23% and 4.65% and 4.26% and 4.49% |
| Cc1ccc(-n2cc(CSc3nc4ccccc4n3Cc3cn(-c4ccc(C)cc4)nn3)nn2)cc1 | HEK293 | MTT | 15.6 ppm |  | cytotoxicity | 23% |
| CNS(=O)(=O)Nc1nccc(Cc2c(C)c3ccc(Oc4ncccc4F)cc3oc2=O)c1F | H9 | cell viability | 7 days |  | IC50 | > 1000 nM |
| Cn1ncc(-c2ccc3c(=O)[nH]nc(CN)c3c2)c1-c1c(F)c(Cl)cc(OC2CC2)c1C#N | SK-LU-1 | cell viability, inhibitor, CellTiter-Glo | 120 h, baseline-subtracted |  | IC50 | 130 nM |
| O=C(O)C1OC(Oc2ccc3oc(-c4ccc(O)cc4)c(O)c(=O)c3c2)C(O)C(O)C1O (stereo not shown) | MDCKII-UGT1A1/MRP2 cells | glucuronide efflux, substrate |  |  | Jmax | 2.7 ± 0.27 pmol/mg/min |
| O=C(C[Se]C(=O)c1ccccc1Nc1ccccc1)Nc1cccc(C(F)(F)F)c1 | NCI60 colon subpanel | NCI60 five-dose screen |  |  | mean TGI | 7.38 µM |
| COc1cccc2c1cc1c3c(cc4c(c32)OCO4)[C@@H]2c3c4c5c(cc6c(c5c5cccc(OC)c35)OCO6)CCN4[C@@H]2N1C (racemic) | H69AR, multidrug-resistant | cytotoxicity, MTT | 50 µg/mL, 48 h |  | inhibition | < 50% |
| COC(=O)c1cc(NC2=NC(=O)C(=Cc3ccc(C)cc3)S2)ccc1OC(C)=O | MCF7 | GC-MS, refers to: L-5-Oxoproline | 1 µM | reference: DMSO | metabolite level | 0.36 fold change |
| CCC(=CCc1c(O)cc2c(c1O)C(=O)CC(c1ccc(O)cc1)O2)CC (stereo not shown) | HeLa | annexin V/PI staining | 48 µM, 48 h |  | necrotic cells | 4.13 ± 0.31% |
| CC(C)c1ccc(N(C)c2ccc3c(c2)OCC[C@H]3CNc2cnccc2C(=O)O)cc1 | Granta-519 | cell growth or viability, ATP luminescence | 7 days |  | IC50 | 17.6 nM |
| CNC(=O)CCN(Cc1ccc(C(F)F)cc1)C(=O)c1cc2c(OC)ccc(-c3ccc(=O)n(C)c3)c2s1 | murine AML cells | BRD4 chromatin occupancy, ChIP-seq, refers to: BRD4 at Cd47 locus | concentration not given, chr16:49789842-49810190 | reference: DMSO, higher = more occupancy | BRD4 ChIP-seq tag count | 157 a.u. |
| C#CCCCC(O)/C=C/C(=O)NC1(c2ccc(-c3nc4ccn5c(=O)[nH]nc5c4cc3-c3ccccc3)cc2)CCC1 (stereo not shown) | MDA-MB-468 | flow cytometry PI | EC60, 72 h |  | sub-G0 cells | 1.3% |
| CC(=O)Oc1ccccc1C(=O)[Se]CC(=O)Nc1cccc(C(F)(F)F)c1 | NCI60 colon subpanel | NCI60 five-dose screen |  |  | GI50 | 4.34 µM |
| COC(=O)c1cc(NC2=NC(=O)C(=Cc3ccc(N(C)C)cc3)S2)ccc1OC(C)=O | MCF7 | GC-MS, refers to: L-Leucine | 1 µM | reference: DMSO | metabolite level | 0.5 fold change |
| NC(Cc1ccccc1)C(=O)N1CC(=Cc2ccc(Cl)c(Cl)c2)C(=O)C(=Cc2ccc(Cl)c(Cl)c2)C1 (stereo not shown) | BRD4-HiBiT cells | BRD4 degradation rescue, inhibitor | 24 h, 50% degradation rescued, added: dBET6 500 nM |  | EC50 | 161 nM |
| O=C(CCCCCOc1ccc2ccccc2c1)N[C@@H](CO)C[C@@H](O)c1ccc(-c2ccccc2)cc1 | HeLa | CERT activity, HPLC-MS/MS lipidomics, refers to: ceramide 20 | 1 µM, 24 h, not cell-number normalised |  | ceramide level | 124 pmol/sample and 106 pmol/sample and 151 pmol/sample |
